Experimental data collected from several papers.
Each numbered part is a random draw from the data of one study; scales do not carry over between parts. Values joined by “and” are separate records of one study, mostly repeats; a detail may differ.

Set 1
SMILES: COCC1CC2C(CCC3C(O)CCC32)c2ccc(O)cc21 (stereo not drawn)
cell line | assay | setting | scale | log2 fold change
SK-OV-3 | DNA microarray, item: UBD | 100 µM | baseline: untreated | -0.82
SK-OV-3 | DNA microarray, item: UBB | 100 µM | baseline: untreated | -0.111
A549 | DNA microarray, item: TMEM108 | 25 µM | baseline: untreated cells | 1.41
A549 | microarray, item: AURKA | 25 µM | baseline: untreated | 0.136
SK-OV-3 | DNA microarray, item: ACTA2 | 100 µM | baseline: untreated control | -0.71
A549 | DNA microarray, item: CCL8 | 100 µM | baseline: untreated cells | 0
SK-OV-3 | DNA microarray, item: TMEM108 | 100 µM | baseline: untreated cells | 0.0863
SK-OV-3 | DNA microarray, item: UBB | 25 µM | baseline: untreated | -0.241

Set 2
Target: E3 ubiquitin-protein ligase NEDD4, HECT domain (Homo sapiens, UniProt P46934)
Observed: enzyme activity
Mode: inhibitor
Technique: Ub-TR-FRET
Medium: HECT domain
Tested at: 100 µM
Reading: higher = more chain formation
Construct (P46934 938-1319, limits assumed): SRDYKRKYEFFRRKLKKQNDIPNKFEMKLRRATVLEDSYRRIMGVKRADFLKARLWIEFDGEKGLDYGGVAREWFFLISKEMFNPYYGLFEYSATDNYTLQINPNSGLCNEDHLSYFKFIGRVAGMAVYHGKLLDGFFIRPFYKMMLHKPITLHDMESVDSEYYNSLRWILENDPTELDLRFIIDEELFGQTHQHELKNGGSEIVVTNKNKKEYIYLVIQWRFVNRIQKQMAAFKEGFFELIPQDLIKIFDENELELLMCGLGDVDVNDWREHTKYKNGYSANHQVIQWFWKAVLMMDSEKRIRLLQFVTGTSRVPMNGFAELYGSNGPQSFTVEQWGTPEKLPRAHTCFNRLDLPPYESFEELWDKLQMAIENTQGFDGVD
SMILES | ubiquitin chain formation AUC
CNCCCN1c2ccccc2CCc2ccc(Cl)cc21 | 104000 a.u. and 31000 a.u. and 26200 a.u. and 109000 a.u. and 23800 a.u.
CCOC(=O)/C=C/CN(CC)CCCCN1c2ccccc2CCc2ccc(Cl)cc21.O=C(O)/C=C\C(=O)O | 11600 a.u. and 12000 a.u. and 13000 a.u. and 12200 a.u.
CCOC(=O)/C=C/CNCCCCN1c2cc(Cl)ccc2C(=O)N(C)c2ccccc21.O=C(O)/C=C\C(=O)O | 7550 a.u. and 7940 a.u. and 7400 a.u.
COC(=O)CCCNCCCN1c2ccccc2CCc2ccc(Cl)cc21.COC(=O)CCCNCCCN1c2ccccc2CCc2ccc(Cl)cc21.O=C(O)/C=C/C(=O)O | 76300 a.u. and 64200 a.u. and 79300 a.u.
CCOC(=O)/C=C/CNCCCCN1c2ccccc2C(=O)N(C)c2ccc(Cl)cc21.O=C(O)/C=C\C(=O)O | 11300 a.u. and 11800 a.u. and 11200 a.u.
C=CC(=O)NCCCN1c2ccccc2CCc2ccc(Cl)cc21 | 188000 a.u. and 185000 a.u.
CCOC(=O)/C=C/CNCCCCN1c2cc(Cl)ccc2COc2ccccc21.O=C(O)/C=C\C(=O)O | 12800 a.u. and 13000 a.u.
CNC(=O)/C=C/CNCCCN1c2ccccc2CCc2ccc(Cl)cc21.Cl | 53400 a.u. and 57000 a.u. and 51300 a.u.

Set 3
Compound: Cn1cc(-c2cccc(CN3CCC4(CC3)COc3c4ccc4c3CN([C@H]3CCC(=O)NC3=O)C4=O)c2)cn1
Target: CRBN/Zinc finger protein Helios (Homo sapiens, UniProt Q96SW2+Q9UKS7)
UniProt Q96SW2, sequence (whole entry, looked up): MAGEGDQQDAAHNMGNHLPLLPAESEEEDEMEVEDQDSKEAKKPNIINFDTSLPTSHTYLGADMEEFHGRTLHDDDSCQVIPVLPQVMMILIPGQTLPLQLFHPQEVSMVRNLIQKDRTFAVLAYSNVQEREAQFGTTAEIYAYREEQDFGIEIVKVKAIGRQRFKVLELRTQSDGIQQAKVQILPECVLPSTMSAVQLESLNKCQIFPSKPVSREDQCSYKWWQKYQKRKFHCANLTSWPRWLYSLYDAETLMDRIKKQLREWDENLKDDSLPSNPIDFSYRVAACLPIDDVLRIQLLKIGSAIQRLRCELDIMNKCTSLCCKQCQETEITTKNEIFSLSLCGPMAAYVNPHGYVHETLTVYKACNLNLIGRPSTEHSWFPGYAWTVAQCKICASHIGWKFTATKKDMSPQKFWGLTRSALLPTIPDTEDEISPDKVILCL
UniProt Q9UKS7, sequence (whole entry, looked up): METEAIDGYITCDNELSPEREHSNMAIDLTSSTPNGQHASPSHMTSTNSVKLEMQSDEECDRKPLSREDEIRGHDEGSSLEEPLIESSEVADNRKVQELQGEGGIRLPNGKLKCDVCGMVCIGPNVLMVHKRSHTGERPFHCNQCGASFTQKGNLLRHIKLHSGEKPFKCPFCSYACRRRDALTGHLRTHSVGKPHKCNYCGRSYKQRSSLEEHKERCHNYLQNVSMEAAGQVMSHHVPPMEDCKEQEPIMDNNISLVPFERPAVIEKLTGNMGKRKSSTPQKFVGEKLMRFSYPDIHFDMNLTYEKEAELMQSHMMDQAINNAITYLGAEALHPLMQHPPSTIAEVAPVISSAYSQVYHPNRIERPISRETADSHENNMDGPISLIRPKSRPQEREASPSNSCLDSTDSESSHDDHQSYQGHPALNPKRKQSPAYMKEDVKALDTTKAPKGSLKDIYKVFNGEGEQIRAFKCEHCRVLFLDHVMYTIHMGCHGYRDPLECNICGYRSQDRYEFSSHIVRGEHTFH
Mode: degrader
Technique: HiBiT
Cells: HEK293
setting | protein remaining
1.372 nM, 1 h | 69.9% and 67.9%
333.3 nM, 1 h | 41.4% and 45.7%
1000 nM, 1 h | 40.1% and 39%
111.1 nM, 6 h | 16.2% and 14.3%

Single results of other studies
SMILES | organism | assay | system | setting | quantity | result
C=CCN1C(=O)C(O)(C(=O)O)Oc2cc(F)ccc21 (stereo not drawn) | Arabidopsis thaliana | hypocotyl length | Col-0 | 6.25 µg/mL, 7 days, seed germination, dark | inhibition | 2.1%

Some of these lines once more (set 2):
SMILES | ubiquitin chain formation AUC
CNCCCN1c2ccccc2CCc2ccc(Cl)cc21 | 104000 a.u. and 31000 a.u. and 26200 a.u. and 109000 a.u. and 23800 a.u.
CCOC(=O)/C=C/CN(CC)CCCCN1c2ccccc2CCc2ccc(Cl)cc21.O=C(O)/C=C\C(=O)O | 11600 a.u. and 12000 a.u. and 13000 a.u. and 12200 a.u.
CCOC(=O)/C=C/CNCCCCN1c2cc(Cl)ccc2C(=O)N(C)c2ccccc21.O=C(O)/C=C\C(=O)O | 7550 a.u. and 7940 a.u. and 7400 a.u.
